Assay results from different studies.
Every numbered part comes from another study and shows a few of its results, in no order. Changes are numbered by the printed parent chain.

Study 1 — method: RNA Bind-n-Seq; form: RNA; sample: in vitro; tested at: 365 nM; relative to: no-protein control; reading: higher = stronger binding; quantity: RBNS enrichment (R)
Target: RNA binding protein fox-1 homolog 2, RRM domain, GST-SBP tag (RBFOX2, Homo sapiens, UniProt O43251-10, residues 100-194)
Setting: natural RNA segment, single round, ends assumed
Constant ends, left off below: GGGAGUUCUACAGUCCGACGAUC … UGGAAUUCUCGGGUGCCAA
Target sequence (chain): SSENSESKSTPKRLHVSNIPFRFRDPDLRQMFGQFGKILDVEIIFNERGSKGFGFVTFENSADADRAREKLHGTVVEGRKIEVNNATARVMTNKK
ACUGGUGUGUGUUCUCUAUAAGCUCCUGGCCCACUUGGCUUCACUUGAGCAGAAUGACUUGACUGAGUGGUUCUUUGUUGGCCUCAGUUGCUUUAUGUGGGCAUGAGAUG: 1.39
UUUUUUUUUUUUUACUCCCCCUCUAAACACUGCUGCUGCCUUAAUUUUAGAAAGCAGCUUACUAGUUUACCCUUGUGGUAUAAAGUAUUAUAAAUUGUUGUGAAUUUGAA: 0.715
GGAGGGACGGAGCCGGACUGGACAUGGUCACUCAGUACCGCCUGCAGUGUCGCCAUGACUGAUCAUGGCUCUUGCAUUUUUGGGUAAAUGGAGACUUCCGGAUCCUGUCA: 0.767
AGCUCCAGGUCCUGACCAGUUUGCACACACACUCUGGAGCUGUAUCUGGCGCUUUUUCUAUCGUCUCUGCUAUGUCACUGAAUUAACCACUGUACGUGGCAGAGGUGGCA: 0.505
AAAAUGGAACUUUAGGCCAACCCCCAGCCUUCUGUUGCUAGGGUUGGUCUCCUACAGACACAGUGAUCAAGCUGGAUGACUCCUGCUCUUUGGUGCUUUCAACUCAUUGG: 0.385
CAAGCUAUGCCAAGGUCAGAGCCACGGGCAUCUAGAAGGCAUCCACUCUGCUCAAGAGACGGAUGCACUCCUGCGCCCCGGUCUUCGGCCUGGACCCCACACGUUCAUAG: 0.279
AAUUGUAUGUUUAAUCUGUUUCUGAAAUCAUUUUGCAAUAUAUGGAAAUAGAGUAGCAGUUGAUAUUUCUAAAUUGUGACCAUUGUCCGAGAUUGCUUUGAGAACUGGUA: 0.948
CCAGAGUAAACAUCCGAUGCUCAGAGUUAGCAUAAUUUGGAGCUAUUCAGGAAUUGCAGAGAAAUGCAUUUUCACAGAAAUCAAGAUGUUAUUUUUGUAUACUAUAUCAC: 0.448
GAAGUCUGAACAGUCUGGAGCCAAUAGAAGCCAUCAGCCUGCUGCCUAUCUCCCAUAGCCAUUGCUGGCCACCCCUCUCUGUCAAUCUGUGCGCUCUUUUGAUACAUACA: 0.51
AUUUGCCAGAGGGGACAGAAGCAUCUUGUGGCAUUUCCCAUGUGGUGGCCUCCAUGGCACCCACUCUCCCAGUUCCUAUGCAGGUUAUCCCCUGUGGUUUCUCCCCACAU: 1.03
UGUUUAGUGGGCACAAGCUGUAAUAUUCAGCAAAACUUUGUCGACUGGCACUGUUUACAAGUCUGUUAGCUGCAUAAGCUCAAUAAAAAGUUGGUCUGGGCAUUACAUCC: 0.247

Study 2 — target: CCND2, cyclin fold, Cln2 fusion (human); method: yeast growth competition, sequencing; sample: yeast; setting: weak parent motif; relative to: not given; reading: higher = stronger binding; quantity: normalised enrichment score
Starting sequence: SAMHD1 docking peptide (human); ASKSRVQLFKDDP; partner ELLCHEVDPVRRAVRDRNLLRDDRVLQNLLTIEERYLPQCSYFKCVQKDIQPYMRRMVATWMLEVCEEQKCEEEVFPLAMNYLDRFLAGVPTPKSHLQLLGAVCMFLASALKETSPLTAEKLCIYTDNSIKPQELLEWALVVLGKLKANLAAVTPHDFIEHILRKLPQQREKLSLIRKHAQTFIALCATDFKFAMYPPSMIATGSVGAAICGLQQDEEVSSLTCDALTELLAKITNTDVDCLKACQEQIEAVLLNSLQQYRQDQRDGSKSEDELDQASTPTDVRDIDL
D11M: 0.0221
D11E: 0.219
F9E: 0.0389
K10T: 0.216
S2F: 0.193
K10D: 0.373
L8K: 0.332
D12C: -0.37

Study 3 — method: protein-binding microarray; form: double-stranded DNA, one strand shown; sample: in vitro; tested at: 2200 nM top; setting: 60-bp whole probe; with: salmon DNA 0.4 mg/ml; relative to: random background probes; reading: higher = stronger binding; quantity: fitted relative affinity; constant ends, left off below: GCCTAGCAC … GTCTTGATTCGCTTGACGCTGCTG
Target: Interferon regulatory factor 7, full length, phosphomimetic (IRF7, Homo sapiens, UniProt Q92985, residues 1-503, S471D/S472D/S475D/S476D/S477D/S483D/S484D/S487D)
Chain of UniProt Q92985 (whole entry, unmodified, looked up): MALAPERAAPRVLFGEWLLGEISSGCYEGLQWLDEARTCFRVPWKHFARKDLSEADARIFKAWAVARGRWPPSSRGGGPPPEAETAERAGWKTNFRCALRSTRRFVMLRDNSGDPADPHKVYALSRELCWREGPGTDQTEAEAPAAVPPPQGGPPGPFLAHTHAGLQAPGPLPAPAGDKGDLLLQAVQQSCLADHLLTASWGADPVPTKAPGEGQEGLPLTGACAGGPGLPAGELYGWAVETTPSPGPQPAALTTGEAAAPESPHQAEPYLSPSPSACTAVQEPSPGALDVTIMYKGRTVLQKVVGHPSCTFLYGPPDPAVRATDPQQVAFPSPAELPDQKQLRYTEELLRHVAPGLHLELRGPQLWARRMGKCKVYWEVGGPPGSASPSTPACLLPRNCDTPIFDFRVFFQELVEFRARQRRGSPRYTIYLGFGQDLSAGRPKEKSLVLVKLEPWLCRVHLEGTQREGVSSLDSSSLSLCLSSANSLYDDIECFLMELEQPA
TTAGATATCCTTATCCTTTAGTGCTAG: 0.791 z-score
TTAGGACTGGGGTTTCGGTTTGTGCTA: 7.62 z-score
GACGTTATCCTACTGCTGACGTGCTAG: 1.18 z-score
TTAGGACTGGGGACTGGGCTAGTGCTA: -1.25 z-score
TCAAATTTTCAATTCCTACTGTGCTAG: 1.26 z-score
GCCGGTATCGACACTGGGGACGTGCTA: -0.249 z-score
GCCGGTATCGGACTGGGGACGTGCTAG: -0.251 z-score
TTAGGACTGGACTTTCGATTAGTGCTA: 3.7 z-score

Further values, each from its own experiment
PhoQ, residues 284 288 289 292 302 303 NSMLDC  fold induction (PhoP, residues 12 14 15 18 19 SMASL (Escherichia coli, UniProt P23836); Sort-seq, item: YFP reporter; E. coli; PhoQ-PhoP variant library, with: 10 µM Mg2+; relative to: high Mg2+ state, higher = stronger signaling): 11

A few entries again (study 2):
K10T: 0.216
L8K: 0.332
K10D: 0.373
